Results gathered from unrelated publications.
Parts stem from different laboratories: compare values within a part only.

Series 1
Target: Interferon regulatory factor 5, full length, phosphomimetic (IRF5, Homo sapiens, UniProt Q13568-2, residues 1-514, S451D/S453D/S456D/S462D)
Method: protein-binding microarray
Form: double-stranded DNA, one strand shown
Sample: in vitro
Tested at: 940 nM top
Setting: 60-bp whole probe
Added: salmon DNA 0.4 mg/ml
Baseline: random background probes
Reading: higher = stronger binding
`GCCTAGCACGACGGTATCCTTATCCTCACGTGCTAGGTCTTGATTCGCTTGACGCTGCTG`: “fitted relative affinity” 0.418 z-score.
Under “fitted relative affinity”, `GCCTAGCACTTAGGTCTCCTTTTCCTTAAGTGCTAGGTCTTGATTCGCTTGACGCTGCTG` is recorded as 1.14 z-score.
`GCCTAGCACTCATTTTTTTATTTATAACTGTGCTAGGTCTTGATTCGCTTGACGCTGCTG`: “fitted relative affinity” 0.903 z-score.
`GCCTAGCACTTAGGTTTCCTTACCCTTTAGTGCTAGGTCTTGATTCGCTTGACGCTGCTG` — result for “fitted relative affinity”: 1.75 z-score.

Series 2
Target: Sal-like protein 4, full length isoform B (SALL4, Homo sapiens, UniProt Q9UJQ4-2, residues 1-616)
Method: universal PBM
Form: double-stranded DNA, one strand shown
Sample: in vitro
Tested at: not given
Setting: 8-mer, flanks averaged, mean of replicates
Reading: higher = stronger binding
Target sequence (chain): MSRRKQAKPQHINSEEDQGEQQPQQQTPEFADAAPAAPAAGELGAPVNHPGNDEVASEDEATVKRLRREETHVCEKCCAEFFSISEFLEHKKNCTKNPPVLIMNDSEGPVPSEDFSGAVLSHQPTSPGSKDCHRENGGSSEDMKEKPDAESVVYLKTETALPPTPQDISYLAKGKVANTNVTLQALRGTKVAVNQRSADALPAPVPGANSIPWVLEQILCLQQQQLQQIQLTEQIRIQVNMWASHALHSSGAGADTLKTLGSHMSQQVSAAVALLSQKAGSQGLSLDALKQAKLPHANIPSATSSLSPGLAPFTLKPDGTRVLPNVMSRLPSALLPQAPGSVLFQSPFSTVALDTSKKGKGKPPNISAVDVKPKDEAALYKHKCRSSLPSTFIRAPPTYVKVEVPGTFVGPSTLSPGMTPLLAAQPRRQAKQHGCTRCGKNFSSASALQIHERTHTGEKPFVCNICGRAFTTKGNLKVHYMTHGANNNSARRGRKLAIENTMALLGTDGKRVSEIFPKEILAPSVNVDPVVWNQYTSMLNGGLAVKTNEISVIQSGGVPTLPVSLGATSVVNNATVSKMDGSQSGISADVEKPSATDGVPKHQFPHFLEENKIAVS
The E-score of `CGATGGCA` is reported as -0.22.
`CGGCTCAG` gave an E-score of -0.311.
`ACGGATAG` has an E-score of -0.0982.

Series 3
Target: Histone acetyltransferase KAT6A, both winged helices, GST fusion (KAT6A, Homo sapiens, UniProt Q92794, residues 1-181)
Method: protein binding microarray
Form: double-stranded DNA, one strand shown
Sample: in vitro
Tested at: not given
Setting: 8-mer, flanks averaged, mean of 2 arrays, mostly near background
Baseline: not given
Reading: higher = stronger binding
Construct (chain): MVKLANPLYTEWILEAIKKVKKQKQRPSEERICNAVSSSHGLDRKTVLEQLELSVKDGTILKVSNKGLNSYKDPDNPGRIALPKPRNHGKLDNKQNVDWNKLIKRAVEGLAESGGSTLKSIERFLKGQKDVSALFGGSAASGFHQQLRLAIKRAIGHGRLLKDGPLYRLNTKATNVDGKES
The E-score of `CCACGTGC` is reported as -0.0184.
For `CACGTGTA`, the E-score was -0.0211.
With `CACATCGG` the E-score was 0.123.

Other studies, line by line
For `PhoQ, residues 284 288 289 292 302 303 NLALSC`, the fold induction was 3.69 (PhoP, residues 12 14 15 18 19 NQAHL (Escherichia coli, UniProt P23836); Sort-seq, measured: YFP reporter; E. coli; PhoQ-PhoP variant library, added: 10 µM Mg2+; baseline: high Mg2+ state, higher = stronger signaling).

Excerpt of the above (series 2):
The E-score of `CGATGGCA` is reported as -0.22.
